Published values gathered from unrelated publications.
Numbered parts are unrelated; each lists some results of a single study. Positions count from the first letter of the parent shown.

Sample 1
Target: ABI1, truncated, D143A, DHFR fusion (Arabidopsis thaliana)
Technique: DHFR PCA, deep sequencing
Matrix: yeast
Notes: methotrexate growth selection, single substitutions
Together with: (+)-ABA 710 µM
Relative to: wild-type fitted maximum
Direction: higher = stronger binding
Parent: PYL1, truncated, DHFR fusion (Arabidopsis thaliana); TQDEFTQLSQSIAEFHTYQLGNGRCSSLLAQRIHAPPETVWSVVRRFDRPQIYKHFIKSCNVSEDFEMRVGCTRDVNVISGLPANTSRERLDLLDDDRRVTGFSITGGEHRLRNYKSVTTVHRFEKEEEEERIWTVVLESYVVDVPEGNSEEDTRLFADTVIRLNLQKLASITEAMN; partner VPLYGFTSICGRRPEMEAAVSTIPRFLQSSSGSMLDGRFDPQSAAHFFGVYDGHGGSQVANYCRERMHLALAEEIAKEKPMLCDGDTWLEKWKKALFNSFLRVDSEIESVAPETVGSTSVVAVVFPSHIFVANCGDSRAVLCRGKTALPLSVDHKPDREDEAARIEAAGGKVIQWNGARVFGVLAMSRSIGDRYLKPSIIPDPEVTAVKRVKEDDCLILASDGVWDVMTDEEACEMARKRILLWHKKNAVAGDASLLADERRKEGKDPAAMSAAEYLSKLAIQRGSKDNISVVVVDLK
Change | relative binding score [%]
R113N | 97.4
V145Q | 78.7
N149K | 61.3
L91F | 37.6
Q7D | 108

Sample 2
Target: CCNB2, cyclin fold, Cln2 fusion (human)
Technique: yeast growth competition, sequencing
Matrix: yeast
Notes: weak parent motif
Relative to: not given
Direction: higher = stronger binding
Parent: SCAPER docking peptide (human); SNARRSLNFGGST
Change | normalised enrichment score
SNAMRSLNFGGST [R4M] | -0.243
DNARRSLNFGGST [S1D] | 0.221
SNARRSLNFGGSS [T13S] | -0.155
SNARPSLNFGGST [R5P] | -0.235
SNARRSLNFGGSI [T13I] | 0.329

Sample 3
Target: Microphthalmia-associated transcription factor, full length (MITF, Homo sapiens, UniProt O75030-10, residues 1-413)
Technique: protein-binding microarray
Form: double-stranded DNA, one strand shown
Matrix: in vitro
Tested at: not given
Notes: k-mer, scored over probes, only values ≥0.25
Direction: higher = stronger binding
Target sequence (chain): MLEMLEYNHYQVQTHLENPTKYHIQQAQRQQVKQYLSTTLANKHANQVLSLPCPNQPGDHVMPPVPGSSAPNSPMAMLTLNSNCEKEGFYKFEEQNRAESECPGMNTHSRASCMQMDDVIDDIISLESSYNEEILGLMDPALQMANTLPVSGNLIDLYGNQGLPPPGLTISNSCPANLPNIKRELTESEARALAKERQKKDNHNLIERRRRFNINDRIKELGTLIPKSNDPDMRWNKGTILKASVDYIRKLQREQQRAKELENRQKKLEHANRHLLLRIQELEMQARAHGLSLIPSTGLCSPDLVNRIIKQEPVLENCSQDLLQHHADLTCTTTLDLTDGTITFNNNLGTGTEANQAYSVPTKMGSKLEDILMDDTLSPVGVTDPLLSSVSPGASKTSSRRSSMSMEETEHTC
Strand | E-score
CAGCTGA | 0.264
ACGTGGC | 0.286
CACGGGA | 0.451
ACATGAA | 0.332
CGTGATA | 0.382
CCCACCC | 0.251
ATCACAT | 0.415
ACATGAT | 0.406
CATGATC | 0.356
TACATGA | 0.263

Other studies, line by line
Substance | target | test | test system | setting | scale | measurement | result
PhoQ, residues 284 288 289 292 302 303 SLANKL | PhoP, residues 12 14 15 18 19 YHFSH (Escherichia coli, UniProt P23836) | Sort-seq, refers to: YFP reporter | E. coli | PhoQ-PhoP variant library, together with: 10 µM Mg2+ | relative to: high Mg2+ state, higher = stronger signaling | fold induction | 2.36

Excerpt of the above (sample 3):
Strand | E-score
CAGCTGA | 0.264
ACGTGGC | 0.286
CACGGGA | 0.451
